Measurements gathered from unrelated publications.
Each line is one published result; not all experiments were run side by side. Several values in a cell are separate wells, animals, samples, runs or records. ± marks the error that the study gave.

For `N#CCC1CCN(c2nc(Nc3ccc(N4CCC(O)CC4)cc3)c3c(=O)[nH]ncc3n2)CC1`, “GIF level change” read 1.41 (Olink multiplex; human, serum; 80 mg, day 29, unit not given; baseline: baseline).
`CC1(C)CCC(c2ccc(Cl)cc2)=C(CN2CCN(c3ccc(C(=O)NS(=O)(=O)c4ccc(N[C@H](CCN5CCOCC5)CSc5ccccc5)c(S(=O)(=O)C(F)(F)F)c4)cc3)CC2)C1` gave an EC50 of 21 nM (cell killing; canine lymph node CD3+ T cells, dog 30; 24 h).
`[2H][C@]1(Cc2ccc(OCCc3ccc(CC)cn3)cc2)SC(=O)NC1=O` — result for plasma AST: “decreased” (C57BL/6J mouse, choline-deficient diet; dose not given).
The distance travelled of `O=P(O)(O)C(Cl)(Cl)P(=O)(O)O` is reported as 29 m and 25 m and 27 m and 31 m (open field test; UT+/+ and UT-/- mice, SAH; 23000 µg/mL).
`Oc1ccc(Br)cc1C=NCCN1CCOCC1`: “ferric reducing power” 10.3% (FRAP; 40 µM).
With `CC[C@H]1[C@@H](O)[C@@H]2[C@H](CC[C@]3(C)[C@@H]([C@H](C)CCC(=O)O)CC[C@@H]23)[C@@]2(C)CC[C@@H](O)C[C@@H]12` the plasma cholesterol was 152 ± 9 mg/dL (C57BL/6J mouse, AMLN diet NASH model; dose not given, terminal).
For `Cc1coc([C@H]2C[C@H]3[C@@H](CF)SC(N)=N[C@@]3(c3ccc(F)cc3F)CO2)n1`, “brain Aβ40 level” read 1.31 ng/g (item: Aβx-40; wild-type mouse, brain; subcutaneous, 80 mg/kg, 3 h).
For `CCCCCN1C[C@H](O)[C@@H](O)[C@H](O)[C@@H]1CO`, “genomic disease score” read 0.57 (RNA sequencing, item: Hallmark apoptosis genes; Hexb-/- mouse, hippocampus; 30 mg/kg/day; direction not given).
`C=CCn1c(=O)c2cnc(Nc3ccc(N4CCN(C)CC4)cc3)nc2n1-c1ccc2c(n1)[C@@](O)(CC)CC2`: “tumour growth inhibition” 53.1% (T47D xenograft, BALB/c nude mice; oral, 80 mg/kg once daily x 28, day 27; baseline: vehicle).
`Nc1c(O)cccc1C(=O)O` — result for “log2 fold change”: 0.0596 (binding, MIDAS equilibrium dialysis LC-MS; A2AR-BRIL thermostabilized; concentration not given; baseline: no-protein control).
With `CC(C)NCC(O)c1ccc(O)c(O)c1` (centres unmarked) the sarcomere length was 1.72 µm (ventricular cardiomyocytes, C57BL/6 mouse; dose not given, 0.012 s).
`CCO[C@H]1CCN(Cc2c(OC)cc(C)c3[nH]ccc23)[C@H](c2ccc(C(=O)O)cc2)C1`: “PNH RBC clone size” 20.9% (PNH patients, blood; oral, 25 mg then 100 mg, week 2, mean absolute change; baseline: baseline).
The HDL-C of `CC(C)c1c(C(=O)Nc2ccccc2)c(-c2ccccc2)c(-c2ccc(F)cc2)n1CC[C@@H](O)C[C@@H](O)CC(=O)O` is reported as 64 mg/dL (cynomolgus monkey, male, serum; 40 mg/kg or 25 mg/kg, day 176, 4224 h).
Under “log2 fold change”, `Nc1nc2nc[nH]c2c(=O)[nH]1` is recorded as 0.0575 (binding, MIDAS equilibrium dialysis LC-MS; A2AR-BRIL thermostabilized; concentration not given; baseline: no-protein control).
`O=C(OC(C(F)(F)F)C(F)(F)F)N1CCN(Cc2cccc(Oc3ccccc3)c2)CC1` has a k3 of 0.027 min⁻¹ (PET blocking study; rhesus monkey, brain OCC; 0.01 mg/kg, compound pretreatment, together with: [18F]T-401 tracer).
The maximum inhibition of `Cc1noc(C)c1-c1cc(C(O)(c2ccccn2)c2ccccn2)c2nc(C3CC3)[nH]c2c1` is reported as 16% (item: CCR2 expression; human, peripheral blood; 2 mg, day 8, 1604 study).
For `N[C@@H](Cc1cc(I)c(O)c(I)c1)C(=O)O`, “log2 fold change” read -0.0745 (binding, MIDAS equilibrium dialysis LC-MS; A2AR-BRIL thermostabilized; concentration not given; baseline: no-protein control).
For `COc1ccc2c(c1)CC[C@@H]1[C@@H]2CC[C@]2(C)[C@@H](NCCCCCCN3C(=O)C=CC3=O)CC[C@@H]12`, the GFAP-positive area was 0.38% and 0.33% and 0.76% (mouse, humanized UT, subarachnoid haemorrhage, meninges; dose not given, day 1; baseline: total area).
With `CN(C(=O)n1cnc(-c2ccc[n+]([O-])c2)c1)C1CCCCC1` the AUC(0-t) was 527 ng·h/mL (item: OEA; human, plasma; 1.25 mg single dose).
Under “best overall response”, `COc1ncc(-c2nc3c(n2C(C)C)[C@H](c2ccc(Cl)cc2)N(c2cc(Cl)cn(C)c2=O)C3=O)c(OC)n1` is recorded as 0% (International Working Group criteria; human acute myeloid leukemia patients; oral, 350 to 400 mg, response CRi, high-dose, other doses).
With `O=C1CCc2ccc(OCCCCN3CCN(c4cccc(Cl)c4Cl)CC3)cc2N1` the treatment discontinuation was 48% (stop or switch frequency; human patients, CYP2D6 ultrarapid metabolizers; dose not given, 6 months, genetic phenotype only).
For `Cn1cc([C@H]2C[C@H]3CSC(N)=N[C@@]3(c3ccc(F)cc3F)CO2)cn1`, “brain Aβ40 level” read 0.99 ng/g (item: Aβx-40; wild-type mouse, brain; subcutaneous, 50 mg/kg, 6 h).
Under “log2 fold change”, `CCCCCCCCCC(=O)O` is recorded as 0.987 (binding, MIDAS equilibrium dialysis LC-MS; A2AR-BRIL thermostabilized; concentration not given; baseline: no-protein control).
`N#Cc1ccc2c(c1)[C@H]1CCCN(C(=O)c3ccc4[nH]cnc4c3)[C@H]1C2`: “fasting plasma insulin” 20.2 mU/L (T2DM patients with overweight or obesity, plasma; oral, 10 mg, day 15 (360 h), multiple dosing, mean).
For `Cn1cc(Nc2nccc(-c3ccc4c(c3)CN(C3COC3)CC[C@H]4NC(=O)c3cn(C(C)(C)C)nn3)n2)cn1`, “pathway activation z-score” read 2.45 (item: Ethanol Degradation IV; splenic B cells, Mus musculus; 30 mg/kg, together with: IgD activation; baseline: vehicle, direction not given).
For `CSCCNc1nc(SCCC(F)(F)F)nc2c1ncn2[C@@H]1O[C@H](COP(=O)(O)OP(=O)(O)C(Cl)(Cl)P(=O)(O)O)[C@@H](O)[C@H]1O`, “patients with IPA above 90%” read 0% (platelet aggregation, light transmission aggregometry; human patients, platelet-rich plasma; dose not given, 3 h, together with: TRAP 15 µM).
`CC(C)(C)c1sc2ncnc(Oc3c(F)cccc3OC(F)(F)F)c2c1-c1ccc(Cl)cc1` gave an antihyperalgesia of over 100% (paw withdrawal latency; MrgprX1 mice, CCI model; oral, 30 mg/kg, 2 h, day 14 post-CCI, heat hyperalgesia).
Under “share of responses”, `CC(C)[C@H](NC(=O)[C@H](Cc1ccc(O)cc1)NC(=O)[C@H](Cc1ccc(O)cc1)NC(=O)[C@@H]1CCCN1C(=O)[C@H](CCC(=O)O)NC(=O)[C@H](CCC(=O)O)NC(=O)[C@H](Cc1c[nH]c2ccccc12)NC(=O)[C@@H]1CCCN1C(=O)[C@@H](NC(=O)[C@H](CCC(N)=O)NC(=O)c1ccc2c(c1)C(=O)OC21c2ccc(O)cc2Oc2cc(O)ccc21)C(C)C)C(=O)N[C@H](C(=O)N[C@@H](CCCCN)C(=O)N[C@@H](CCCCN)C(=O)N[C@@H](CO)C(=O)N[C@@H](CO)C(=O)NCC(=O)NCC(N)=O)C(C)C` is recorded as 0% (nerve penetration depth; human head and neck surgery, nerves; 500 mg, much improved; baseline: white light).
`CN(C)C(=O)c1cc2cnc(Nc3ccc(N4CCNCC4)cn3)nc2n1C1CCCC1` — result for “normalized enrichment score”: 1.22 (RNA-seq GSEA, item: HALLMARK_HYPOXIA; MB002 tumour; concentration not given, in vivo; baseline: vehicle, direction not given).
Under “DPPH radical scavenging”, `Cc1cc(C(C)(C)C)c(O)c(C(C)(C)C)c1` is recorded as 31.3 ± 0.1% (DPPH; methanol; concentration not given, 30 min).
With `COc1ccc(F)cc1C(=O)NCc1ccc(-c2nn([C@@H](C)C(F)(F)F)c(N)c2C(N)=O)cc1` the response rate was 64% (MCL patients, prior stem cell transplant; dose not given).
Under “brain Aβ40 level”, `Cc1cc([C@H]2C[C@H]3[C@@H](C)SC(N)=N[C@@]3(c3ccc(F)cc3F)CO2)on1` is recorded as 1.12 ng/g (item: Aβx-40; wild-type mouse, brain; subcutaneous, 50 mg/kg, 7 h).
`OC[C@H]1O[C@@H](O[C@H]2[C@H](O)[C@@H](O)[C@H](O)O[C@@H]2CO)[C@H](O)[C@@H](O)[C@@H]1O` — result for “log2 fold change”: -0.217 (binding, MIDAS equilibrium dialysis LC-MS; A2AR-BRIL thermostabilized; concentration not given; baseline: no-protein control).
The sarcomere length of `O=C(O)CNC(=O)Cc1ccccc1` is reported as 1.71 µm (ventricular cardiomyocytes, C57BL/6 mouse; dose not given, 0.12 s).
Under “pS6RP change from baseline”, `CO[C@H]1CC[C@H](N2C(=O)CNc3ncc(-c4ccc(C(C)(C)O)nc4)nc32)CC1` is recorded as -63.5% (flow cytometry; stimulated B cells, human, blood; 30 mg single dose, 5 h, median; baseline: baseline).
For `Cc1cc([C@H]2C[C@H]3[C@@H](CF)SC(N)=N[C@@]3(c3ccc(F)cc3F)CO2)on1`, the Aβ40 level was 0.33 ng/mL (item: Aβx-40; Mus musculus wild-type, cerebrospinal fluid; subcutaneous, 30 mg/kg, 3 h).
`N[C@@H](CC(=O)O)C(=O)N[C@@H](Cc1ccccc1)C(=O)O`: “log2 fold change” -0.217 (binding, MIDAS equilibrium dialysis LC-MS; A2AR-BRIL thermostabilized; concentration not given; baseline: no-protein control).
Under “fold IC50 increase”, `C=CCN(C)CCCCCCOc1ccc(C(=O)c2ccc(Br)cc2)c(F)c1` is recorded as 21.7 fold (cell viability; Mut6 cells, mouse; together with: exogenous lanosterol; baseline: without lanosterol).
`NC(=O)c1cnc2[nH]ccc2c1N[C@@H]1[C@@H]2CC3C[C@H]1C[C@@](O)(C3)C2` — result for “CD8+ effector T-cell change”: 0.43% (flow cytometry; Japanese healthy men, blood; oral, 10 mg twice daily, 72 h after day 7 dose; baseline: baseline).
`C[C@@H]1CCC[C@H](n2cnc(-c3cc(Cl)ccc3-n3cc(Cl)nn3)cc2=O)c2cc(ccn2)-c2c(cnn2C(F)F)NC1=O`: “concentration for aPTT prolongation” over 40 µM (rat plasma; IC2× aPTT, STA-PTT reagent).
The plasma C4 of `CCCCC1(CCCC)CN(c2ccccc2)c2cc(SC)c(OCC(=O)N[C@@H](C(=O)NCC(=O)O)c3ccccc3)cc2S(=O)(=O)C1` is reported as 76.1 ng/mL (item: 7α-hydroxy-4-cholesten-3-one; human, plasma; 20 mg once daily, day 9).
`c1ccc(-c2n[nH]cc2-c2ccnc3ccccc23)nc1`: “log2 fold change” 1.31 (kinase binding, competitor, MIB/MS competition, item: CAK1; Candida albicans cell lysate; 1 µM; baseline: DMSO).
Under “log2 fold change”, `O=c1cc[nH]c(=O)[nH]1` is recorded as 0.0708 (binding, MIDAS equilibrium dialysis LC-MS; A2AR-BRIL thermostabilized; concentration not given; baseline: no-protein control).
`OC(CCN1CCCCC1)(c1ccccc1)C1CC2C=CC1C2` (centres unmarked): “EEG power, beta, Pz-O1” 7.3 µV² (resting-state EEG; healthy elderly humans; oral, 4 mg, eyes closed, LS mean).
`N#Cc1ccn2c(-c3ccncc3)c(-c3ccc(F)cc3)nc2c1`: “log2 fold change” -4.4 (kinase binding, competitor, MIB/MS competition, item: YCK2; Candida albicans cell lysate; 10 µM; baseline: DMSO).
The hazard ratio of `COc1cc2nccc(Oc3ccc(NC(=O)c4cc5c(n(-c6ccccc6)c4=O)CCCC5=O)nc3)c2cc1OC` is reported as 0.332 (logrank; MOLM-13 luc/gfp xenograft, mice; diet, 0.013% in feed; baseline: treated over control).
Under “difference from placebo”, `C[C@H](Oc1ccc(Br)cc1-c1ccon1)C(=O)O` is recorded as 0.284 kg (maximum voluntary grip contraction, handgrip dynamometry; healthy human; 400 mg, SAD).
`Cc1n[nH]c2ccc(-c3cc(OC[C@@H](N)Cc4ccccc4)cnc3-c3ccoc3)cc12` — result for “log2 fold change”: 0.0498 (kinase binding, competitor, MIB/MS competition, item: KSP1; Candida albicans cell lysate; 100 nM; baseline: DMSO).
`Nc1ccn([C@@H]2O[C@H](COP(=O)(O)OP(=O)(O)O)[C@@H](O)[C@H]2O)c(=O)n1` — result for “log2 fold change”: -0.76 (binding, MIDAS equilibrium dialysis LC-MS; A2AR-BRIL thermostabilized; concentration not given; baseline: no-protein control).
`C[C@H]1C[C@H]2CSC(N)=N[C@@]2(c2nc(NC(=O)c3ccc(OC(F)F)cn3)cs2)CO1`: “percent change from baseline” -66.8% (item: total Aβ; healthy adults, plasma; 540 mg single dose, 8 h post-dose; baseline: placebo).

Repeated from above:
`OC[C@H]1O[C@@H](O[C@H]2[C@H](O)[C@@H](O)[C@H](O)O[C@@H]2CO)[C@H](O)[C@@H](O)[C@@H]1O` — result for “log2 fold change”: -0.217 (binding, MIDAS equilibrium dialysis LC-MS; A2AR-BRIL thermostabilized; concentration not given; baseline: no-protein control).
The sarcomere length of `O=C(O)CNC(=O)Cc1ccccc1` is reported as 1.71 µm (ventricular cardiomyocytes, C57BL/6 mouse; dose not given, 0.12 s).
Under “pS6RP change from baseline”, `CO[C@H]1CC[C@H](N2C(=O)CNc3ncc(-c4ccc(C(C)(C)O)nc4)nc32)CC1` is recorded as -63.5% (flow cytometry; stimulated B cells, human, blood; 30 mg single dose, 5 h, median; baseline: baseline).
